Published values of several laboratories.
Every numbered part comes from another study and shows a few of its results, in no order.

Series 1
Target: Phosphate system positive regulatory protein PHO4, full length, GST-tagged (PHO4, Saccharomyces cerevisiae, UniProt P07270, residues 1-312)
Method: competition protein-binding microarray
Form: double-stranded DNA, one strand shown
Medium: in vitro
Tested at: 2 µM
Notes: whole 60-bp probe, lowest competitor level
With: Cbf1 competitor, 0.05 µM
Direction: higher = stronger binding
Endpoint: fluorescence intensity
Residues (chain): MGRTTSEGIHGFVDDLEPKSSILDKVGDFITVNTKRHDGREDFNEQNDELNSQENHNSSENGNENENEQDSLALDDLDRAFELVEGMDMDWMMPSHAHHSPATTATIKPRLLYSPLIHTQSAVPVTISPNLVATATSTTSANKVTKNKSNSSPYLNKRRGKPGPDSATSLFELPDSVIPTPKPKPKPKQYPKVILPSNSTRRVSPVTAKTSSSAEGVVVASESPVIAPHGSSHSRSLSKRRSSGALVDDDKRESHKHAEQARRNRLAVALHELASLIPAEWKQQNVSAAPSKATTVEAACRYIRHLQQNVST
CTAAAGATGACCGGATTCGTGATGGGGCTAGACACAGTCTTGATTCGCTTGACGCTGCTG: 3960 a.u.
AAATTACTAAGTTGAGAGGTGGGTGACGCCGTATGAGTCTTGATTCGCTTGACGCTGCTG: 3740 a.u.
GTAACCAGACAAGTCAGCGTGAGGACAGTTGGATTCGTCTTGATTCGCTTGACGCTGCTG: 4270 a.u.
AAGCCCCAAAACGGCCACGTGATGGACTAGTTGCGCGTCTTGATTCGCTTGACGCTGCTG: 15300 a.u.
GTCTTGTCTCATTGGAGGGTGGGTGTCCCCACTTCAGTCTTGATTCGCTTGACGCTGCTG: 4650 a.u.
CTAACGAAGGTTTGTCACGGGACTTACAAGCCAAGTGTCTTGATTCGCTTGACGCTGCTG: 6440 a.u.
CATTTATATTAAAATAATACCTACTGTTTCATACTTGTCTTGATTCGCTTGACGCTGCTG: 3680 a.u.
TACATCTACCGCTGAAACGTGGATTCAAGGAACAGTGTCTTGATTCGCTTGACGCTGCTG: 12700 a.u.
GGCGCAACATTTAATTGCATGACAAATTCCACTGCTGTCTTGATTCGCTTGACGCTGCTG: 5210 a.u.
AGAGCCGATACGGCACCCGTGCGATACGAGACAGGAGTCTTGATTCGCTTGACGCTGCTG: 8220 a.u.
CTTTCCCGATCTTGAACCGTGGGTGTAGCACATTTGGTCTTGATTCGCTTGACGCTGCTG: 7430 a.u.
CTTTCCCGATCTTTTCACGTGCACTTAGCACATTTGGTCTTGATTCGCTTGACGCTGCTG: 14700 a.u.
TCGAGAACTTAGGGTAGCGTGCCAGAAAATTTGCATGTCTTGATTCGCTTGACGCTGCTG: 7380 a.u.
ATTTTCCTGATCCCAAATGTGACGCCCAACATGGCAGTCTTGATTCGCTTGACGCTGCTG: 4750 a.u.
CGGGGTTAAGTTTGTCCGGTGGGTGGCTTGCAGCAGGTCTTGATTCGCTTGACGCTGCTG: 4560 a.u.
TGGCAATGGCCACTCACCGTGCCAGGCCTGCAAGTCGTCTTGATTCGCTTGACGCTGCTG: 5420 a.u.
GTAGCCCCACAATTTCACCTGCCATATAACATAAGGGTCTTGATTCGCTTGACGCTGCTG: 5170 a.u.
GTCTTGTCTCATTGCAGTGTGGGTGTCCCCACTTCAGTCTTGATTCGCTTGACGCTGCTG: 5770 a.u.
CGGGGTTAAGTTTGTTCAGTGGGTGGCTTGCAGCAGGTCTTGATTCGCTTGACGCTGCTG: 4980 a.u.
AAATTACTAAGTTGAGTTGTGGGTGACGCCGTATGAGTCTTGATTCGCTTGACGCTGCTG: 4330 a.u.
AGAGAGTTGATAGAACAAAGGACAAAGAAATTTAGAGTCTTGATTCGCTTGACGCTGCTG: 2630 a.u.
CTAACGAAGGTTTGGGTTGTGGGTGACAAGCCAAGTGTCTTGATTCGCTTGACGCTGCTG: 5390 a.u.
CTAACGAAGGTTTGTCATGTGGGTGACAAGCCAAGTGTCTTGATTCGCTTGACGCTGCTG: 9370 a.u.
AAAGCGGTAATTTTTCACGTGATTTCACATATCTATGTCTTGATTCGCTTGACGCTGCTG: 12000 a.u.
CACCCAAGCGTTAGGCACGTGTGGGCCGGAGTTTACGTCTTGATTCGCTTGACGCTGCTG: 16200 a.u.

Series 2
Target: Histone acetyltransferase KAT6A, both winged helices, GST fusion (KAT6A, Homo sapiens, UniProt Q92794, residues 1-181)
Method: protein binding microarray
Form: double-stranded DNA, one strand shown
Medium: in vitro
Tested at: not given
Notes: 8-mer, flanks averaged, mean of 2 arrays, mostly near background
Baseline: not given
Direction: higher = stronger binding
Endpoint: E-score
Target sequence (chain): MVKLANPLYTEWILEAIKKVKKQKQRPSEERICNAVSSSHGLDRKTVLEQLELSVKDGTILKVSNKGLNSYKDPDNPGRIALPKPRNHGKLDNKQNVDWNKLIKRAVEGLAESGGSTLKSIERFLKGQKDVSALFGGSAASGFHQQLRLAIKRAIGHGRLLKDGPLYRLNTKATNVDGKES
TCAATACA: -0.173
CCGCAGTC: 0.169
CCTTACGC: 0.165
CACACGTC: -0.00958
CTTCTGGA: -0.0606
CTCAAGGC: -0.171
GTGGGTCA: -0.128
ATTCGTAC: -0.0753
CGCCCGTC: 0.334
ACGCGCAC: 0.255
CCAATCAG: -0.354
GTTTTCTA: 0.0111
AGACCAGC: -0.0987
CTGACATC: -0.124
TCGCACCA: -0.103
GCGCATAC: 0.325
TAGAGCAA: -0.156
CGCTATCA: 0.187
CGCTGCCA: 0.0438
GCATACCA: -0.104
ACGCTACG: 0.107
AATCGGTA: 0.0891
CACGCCCG: 0.283

Series 3
Target: RNA binding protein fox-1 homolog 2, RRM domain, GST-SBP tag (RBFOX2, Homo sapiens, UniProt O43251-10, residues 100-194)
Method: RNA Bind-n-Seq
Form: RNA
Medium: in vitro
Tested at: 365 nM
Notes: natural RNA segment, single round, ends assumed
Baseline: no-protein control
Direction: higher = stronger binding
Endpoint: RBNS enrichment (R)
Residues (chain): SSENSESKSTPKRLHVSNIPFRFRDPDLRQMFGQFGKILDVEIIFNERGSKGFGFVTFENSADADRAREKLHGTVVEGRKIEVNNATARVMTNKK
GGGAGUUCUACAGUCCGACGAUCUGGGCUGGGUUUGUUUACUCCAACUUCCCUUCUACACCCCUCCUGCAGGACAGUACGAUUUGGGGAGAACCCAGCUCCCCACUUUAUCUGCAGACUCUGGGACCUGACAAUGGAAUUCUCGGGUGCCAA: 0.587
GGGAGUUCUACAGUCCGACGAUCGACUCCUGUUCUUAAACACAAGUGGUUUUUCCUAAUUCCAGAGGAACUGGACGUCACCAAACAAGGUUGCAUUUUACUUUUGCAUCCAGUUUUUAUAGUUUUCCACAACCUGGAAUUCUCGGGUGCCAA: 0.58
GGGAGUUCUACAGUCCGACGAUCGUGAAUAAAGUUAUGUUCAGAUAGUUUGUACAGAAAAAAUAAUAAUAAAAUGGAUGCCCUUCAUGUUUUAUUGCUAUUACUAAAUGUCAAGAUUGUAUGCUAUUAUGUCUUGGAAUUCUCGGGUGCCAA: 0.498
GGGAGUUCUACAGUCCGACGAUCUCAUGCUUUUCACCUAAAUAGCAAUUUAAAUAUUUGAUGAGCUCUGAACAAACCCUGUAUCAAGUAUCUGAAAUUUAAGGAGAUCAAACAGACUGUGACCAAGGUCCUGUUGGAAUUCUCGGGUGCCAA: 0.323
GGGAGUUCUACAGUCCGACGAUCUUUUUUUCAUCUUUUUUUGUUAACUAAUUUGCAAUAAAAAUGAUACUGAUGGUUGUCCACAUUUUGCAAACUUGGAGUGUGGUUUGGUUCACUUUUUGGGGAGUGUGACAUGGAAUUCUCGGGUGCCAA: 0.708
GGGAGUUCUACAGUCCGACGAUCAUCUUGUACAACUGAGAAGAAUCAUACUUUGACCUACCUUGUAGAGAUGUGAGGAUUUAGAUGUUUGCUAACUUCAAAACUGUGCUUGAAUAGACUAAUAAUAUAUGCUCUGGAAUUCUCGGGUGCCAA: 0.515
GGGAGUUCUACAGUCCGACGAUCGACCUCAGAGGCAUUUUUGCCAAGAGGGCAGAACCUGACUGAGCCCUGGAUAUCCCCUGUCUUAGUGGGUCUGCCAAGGUCUUGUCAGUCUUUUUCUGGUUUUGCUCAAGUGGAAUUCUCGGGUGCCAA: 0.203
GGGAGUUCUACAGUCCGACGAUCAAACUUAGUCCAGGAUAUUUUCCUUUGUGUUUUAUAACUUUACAGAGGACCAAAGCAAUUCUUGUUUUAGUUUCUUUGCGAAGCCUGCUCCUCCUUCCCUUCAUAAGGACUGGAAUUCUCGGGUGCCAA: 0.251
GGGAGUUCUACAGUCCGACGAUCGAGAAAAGAGAGAUGGGAACCGACGUUGAAAAGGAGGAAACAGAGACCAAGACAGAGCAAGCCAGUGAAGAACAUGAGCAGGAAACAGCUGCUCCUGAGCAUGAAGGAACUGGAAUUCUCGGGUGCCAA: 8.37
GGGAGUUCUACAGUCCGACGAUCGCAGCCGUGUAGGGGGCCUCCCAUCUGCUAAGCGUUUUUCCGUUGAGCCGCUCCAAAAACACUAAGCUGGGGACGCCAGGUGCCCCCCCACCCCGGCUCCCUGGCCCUAUUGGAAUUCUCGGGUGCCAA: 0.363
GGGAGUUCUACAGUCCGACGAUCGAGCAAUUAGCGCUUGUCAGCUUACCUUACAACACAGAGGGUCCAGCUGUUCACACAAGGGGGCAGGAGCUCUGGUGGGUGUGCAGCCAUGUGGUCACAGCCUGCCAGCAUGGAAUUCUCGGGUGCCAA: 1.36
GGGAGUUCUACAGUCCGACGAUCAUCCCAAUACUGCAGGAGGGGUCUUCUCACAAAGCUCUGAGGGCUGGUCUUGACUAAGCAAUAAGAGCCUCAGAGUUGAUUGAAUUUUAAGGUCCCUUUCUGGCUUCUUGUGGAAUUCUCGGGUGCCAA: 0.446

Series 4
Target: Sal-like protein 4, full length isoform B (SALL4, Homo sapiens, UniProt Q9UJQ4-2, residues 1-616)
Method: universal PBM
Form: double-stranded DNA, one strand shown
Medium: in vitro
Tested at: not given
Notes: 8-mer, flanks averaged, mean of replicates
Direction: higher = stronger binding
Endpoint: E-score
AAATACCG: 0.0798
AACAAGCT: 0.0438
AAGGCACT: -0.201
AAGTAAAT: 0.365
AGATAAAA: 0.247
GGCGTTGA: -0.157
AAGCGGAT: -0.0616
CCTCGGCC: -0.265
GTCAGGGA: -0.143
AAGAGGGC: -0.0531
ATCCCAAA: 0.0814
ACTAATTG: 0.128
ATCTAGCA: 0.0743
CCTAGACA: -0.11
GATCGTTA: 0.0134
CTTGAATC: 0.144
AGAACCAC: -0.0703
ATTTCTCA: 0.199
CACATCGA: 0.0237
AATAATCG: 0.331
ACAGGCGG: -0.22
CCGGCACC: -0.214
AAAACCCA: 0.0895
CAGGGATG: -0.0976
CTGCTCTC: -0.0924

A few entries again (series 2):
CGCTATCA: 0.187
GTTTTCTA: 0.0111
ATTCGTAC: -0.0753
CTTCTGGA: -0.0606
GTGGGTCA: -0.128
TCAATACA: -0.173
GCGCATAC: 0.325
ACGCGCAC: 0.255
CGCTGCCA: 0.0438
AGACCAGC: -0.0987
